# Results collected from several papers.
# Protocols differ between the studies behind these lines.
# Tested at: 1 µM
# Sequence of UniProt P27037 (whole entry, looked up): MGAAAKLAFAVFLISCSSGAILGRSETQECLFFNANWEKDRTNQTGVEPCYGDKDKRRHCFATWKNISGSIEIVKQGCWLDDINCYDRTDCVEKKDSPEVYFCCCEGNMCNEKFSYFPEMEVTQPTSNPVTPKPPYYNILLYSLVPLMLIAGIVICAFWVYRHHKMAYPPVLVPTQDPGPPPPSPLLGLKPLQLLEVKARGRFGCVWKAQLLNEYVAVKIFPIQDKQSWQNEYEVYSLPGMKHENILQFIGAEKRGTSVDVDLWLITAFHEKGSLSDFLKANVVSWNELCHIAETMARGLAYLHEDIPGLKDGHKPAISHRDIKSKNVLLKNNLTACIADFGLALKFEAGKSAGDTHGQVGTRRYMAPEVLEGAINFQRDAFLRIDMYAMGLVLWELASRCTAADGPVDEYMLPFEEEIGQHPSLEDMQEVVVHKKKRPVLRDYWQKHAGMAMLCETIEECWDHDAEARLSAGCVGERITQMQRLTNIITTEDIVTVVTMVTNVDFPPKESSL
Structure (SMILES),target,observed,mode,method,measurement,value
Cc1cc([C@@H](C)Nc2ccccc2C(=O)O)c2nc(N3CCC(F)(F)CC3)c(C#N)c(=O)n2c1,"ERBB2 (Homo sapiens, UniProt P04626)",binding,,competition with immobilised ligand,remaining binding,100%
COc1cc(-c2cncc3c2CN(C)Cc2cc(N4CCNCC4)ccc2-3)cc(OC)c1OC,"PRKACB (Homo sapiens, UniProt P22694)",enzyme activity,inhibitor,,remaining activity,113%
C=CC(=O)N1CCC(COCC(=O)N2CCN(c3nc(-c4cnc(N)nc4C(F)F)nc(N4CCOC[C@@H]4C)n3)CC2)CC1,"FLT3 (Homo sapiens, UniProt P36888, D835Y)",binding,,competition with immobilised ligand,remaining binding,87%
CNc1ncc2c(/C=C/C(=O)N3CCC(OC)CC3)nn(Cc3cccc(C(F)(F)F)c3)c2n1,"ACVR2A (Homo sapiens, UniProt P27037)",enzyme activity,inhibitor,radiometric,remaining activity,94%

# For quick reference, copied from above:
Structure (SMILES),target,observed,mode,method,measurement,value
Cc1cc([C@@H](C)Nc2ccccc2C(=O)O)c2nc(N3CCC(F)(F)CC3)c(C#N)c(=O)n2c1,"ERBB2 (Homo sapiens, UniProt P04626)",binding,,competition with immobilised ligand,remaining binding,100%
